Experimental data gathered from unrelated publications.
Each numbered part is a random draw from the data of one study; scales do not carry over between parts.

Set 1
Cell line: HEK-293T/ACE2
Concentration: concentration not given
Time: 16 (unit not given)
Reference: vehicle
Measurement: viability
SMILES = CC(=O)O[C@H]1C[C@@H]2CC[C@@H]3[C@H](CC[C@@]4(C)[C@H]3C[C@H]([N+]3(C)CCCCC3)[C@@H]4OC(C)=O)[C@@]2(C)C[C@@H]1N1CCCCC1; result = 103%
SMILES = COc1ccc2c(c1)c(CC(=O)O)c(C)n2C(=O)c1ccc(Cl)cc1; result = 101%
SMILES = C[C@]12CC[C@@H]3c4ccc(OC(=O)c5ccccc5)cc4CC[C@H]3[C@@H]1CC[C@@H]2O; result = 102%
SMILES = CC1(C)S[C@@H]2[C@H](NC(=O)[C@H](NC(=O)N3CCNC3=O)c3ccccc3)C(=O)N2[C@H]1C(=O)O; result = 98.8%
SMILES = CC1(C)O[C@@H]2C[C@H]3[C@@H]4C[C@H](F)C5=CC(=O)C=C[C@]5(C)[C@H]4[C@@H](O)C[C@]3(C)[C@]2(C(=O)CO)O1; result = 106%
SMILES = CCn1cc(C(=O)O)c(=O)c2cc(F)c(N3CCNC(C)C3)c(F)c21 (stereo not drawn); result = 103%
SMILES = O=C1CN2Cc3c(ccc(Cl)c3Cl)N=C2N1; result = 103%
SMILES = c1ccc2c(CC3=NCCN3)cccc2c1; result = 93.1%

Set 2
Target: Replicase polyprotein 1ab, polymerase (rep, Severe acute respiratory syndrome coronavirus 2, UniProt P0DTD1)
Effect on: enzyme activity
Action: inhibitor
Concentration: 20 µM
Measurement: inhibition
Compound = CN[C@H]1C(=O)N[C@@H]2Cc3ccc(cc3)Oc3cc4cc(c3O[C@@H]3O[C@H](C(=O)O)[C@@H](O)[C@H](O)[C@H]3NC(=O)CCCCCCCCC(C)C)Oc3ccc(cc3Cl)[C@@H](O)[C@@H]3NC(=O)[C@H](NC(=O)[C@@H]4NC(=O)[C@@H](NC2=O)c2cc(cc(O)c2Cl)Oc2cc1ccc2O)c1ccc(O)c(c1)-c1c(O[C@H]2O[C@H](CO)[C@@H](O)[C@H](O)[C@@H]2O)cc(O)cc1[C@@H](C(=O)NCCCN(C)C)NC3=O; result = 21.5%
Compound = c1ccc(CCNc2nc(-c3ccccc3)cs2)cc1; result = 4.97%
Compound = N#C/C(=C1/SCC(c2ccccc2Cl)S1)n1ccnc1 (stereo not drawn); result = 3.92%
Compound = O=C1c2cccc(O)c2C(=O)c2c(O)cc(CO)cc21; result = 4.25%

Set 3
Target: Interferon regulatory factor 3, full length, phosphomimetic (IRF3, Homo sapiens, UniProt Q14653, residues 1-427, S386D/S396D/S398D/S402D/T404D/S405D)
Sequence of UniProt Q14653 (whole entry, unmodified, looked up): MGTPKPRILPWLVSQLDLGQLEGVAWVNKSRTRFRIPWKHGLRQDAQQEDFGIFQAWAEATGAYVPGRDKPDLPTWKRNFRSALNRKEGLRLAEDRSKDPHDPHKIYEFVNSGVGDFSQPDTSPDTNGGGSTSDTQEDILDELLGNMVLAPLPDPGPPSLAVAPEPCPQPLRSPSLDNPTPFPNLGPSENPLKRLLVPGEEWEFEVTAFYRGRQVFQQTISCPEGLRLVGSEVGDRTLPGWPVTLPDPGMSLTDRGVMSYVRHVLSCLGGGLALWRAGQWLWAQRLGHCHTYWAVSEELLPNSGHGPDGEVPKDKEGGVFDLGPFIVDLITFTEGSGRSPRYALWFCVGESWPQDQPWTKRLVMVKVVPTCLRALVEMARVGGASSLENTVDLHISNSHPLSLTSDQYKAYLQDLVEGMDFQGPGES
Method: protein-binding microarray
Molecule type: double-stranded DNA, one strand shown
Sample: in vitro
Concentration: 2540 nM top
Setting: 60-bp whole probe
With: salmon DNA 0.4 mg/ml
Reference: random background probes
Reading: higher = stronger binding
Measurement: fitted relative affinity
Oligonucleotide = GCCTAGCACTTAGAACTGGGGATTCGATTAGTGCTAGTCTTGATTCGCTTGACGCTGCTG; result = -0.469 z-score
Oligonucleotide = GCCTAGCACGACGGTTTCGACTATCGGGACGTGCTAGTCTTGATTCGCTTGACGCTGCTG; result = 3.04 z-score
Oligonucleotide = GCCTAGCACTTAGAACTGAGACTGGCTTAGTGCTAGGTCTTGATTCGCTTGACGCTGCTG; result = -0.557 z-score
Oligonucleotide = GCCTAGCACACAACTAGGGAATTTAGAAAAGTGCTAGTCTTGATTCGCTTGACGCTGCTG; result = 0.154 z-score

Set 4
Target: Histone acetyltransferase KAT6A, winged helix 2, GST fusion (KAT6A, Homo sapiens, UniProt Q92794, residues 85-181)
Method: protein binding microarray
Molecule type: double-stranded DNA, one strand shown
Sample: in vitro
Concentration: not given
Setting: 8-mer, flanks averaged, mean of 2 arrays, mostly near background
Reference: not given
Reading: higher = stronger binding
Measurement: E-score
Target sequence (chain): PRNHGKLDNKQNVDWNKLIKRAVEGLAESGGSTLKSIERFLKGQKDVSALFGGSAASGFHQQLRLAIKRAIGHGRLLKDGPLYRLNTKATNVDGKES
Oligonucleotide = ATTAACCC; result = 0.0756
Oligonucleotide = CAAGTCCC; result = -0.0959
Oligonucleotide = GCATGGCC; result = 0.0783
Oligonucleotide = GGAATCAA; result = -0.0197
Oligonucleotide = TCAAATGA; result = -0.0492
Oligonucleotide = AATTTGGA; result = -0.0145
Oligonucleotide = CAACACTA; result = -0.0527
Oligonucleotide = GGGCGAAA; result = 0.213

Excerpt of the above (set 4):
Oligonucleotide = GGAATCAA; result = -0.0197
Oligonucleotide = TCAAATGA; result = -0.0492
Oligonucleotide = AATTTGGA; result = -0.0145
Oligonucleotide = CAACACTA; result = -0.0527
